Published values pooled from the literature.
Each numbered part is a random draw from the data of one study; scales do not carry over between parts. Several values in a cell are separate wells, animals, samples, runs or records.
Sequence of UniProt Q15569 (whole entry, looked up): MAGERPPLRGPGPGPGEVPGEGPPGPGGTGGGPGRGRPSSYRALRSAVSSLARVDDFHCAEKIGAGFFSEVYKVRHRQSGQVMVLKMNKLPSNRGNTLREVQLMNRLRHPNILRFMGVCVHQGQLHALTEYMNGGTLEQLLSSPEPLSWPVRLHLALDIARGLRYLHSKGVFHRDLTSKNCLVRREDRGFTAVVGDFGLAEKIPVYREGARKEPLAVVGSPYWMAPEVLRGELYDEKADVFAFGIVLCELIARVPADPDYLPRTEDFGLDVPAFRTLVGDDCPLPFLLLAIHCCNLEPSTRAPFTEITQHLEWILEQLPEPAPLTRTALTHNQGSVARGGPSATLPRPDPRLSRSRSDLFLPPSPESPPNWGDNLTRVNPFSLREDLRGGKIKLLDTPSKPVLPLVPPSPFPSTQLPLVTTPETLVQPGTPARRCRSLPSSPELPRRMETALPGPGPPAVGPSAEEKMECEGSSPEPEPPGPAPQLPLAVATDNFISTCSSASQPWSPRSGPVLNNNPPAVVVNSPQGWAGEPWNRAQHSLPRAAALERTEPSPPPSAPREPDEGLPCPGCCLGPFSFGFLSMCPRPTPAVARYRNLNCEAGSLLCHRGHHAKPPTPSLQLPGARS
Sequence of UniProt Q8N5S9 (whole entry, looked up): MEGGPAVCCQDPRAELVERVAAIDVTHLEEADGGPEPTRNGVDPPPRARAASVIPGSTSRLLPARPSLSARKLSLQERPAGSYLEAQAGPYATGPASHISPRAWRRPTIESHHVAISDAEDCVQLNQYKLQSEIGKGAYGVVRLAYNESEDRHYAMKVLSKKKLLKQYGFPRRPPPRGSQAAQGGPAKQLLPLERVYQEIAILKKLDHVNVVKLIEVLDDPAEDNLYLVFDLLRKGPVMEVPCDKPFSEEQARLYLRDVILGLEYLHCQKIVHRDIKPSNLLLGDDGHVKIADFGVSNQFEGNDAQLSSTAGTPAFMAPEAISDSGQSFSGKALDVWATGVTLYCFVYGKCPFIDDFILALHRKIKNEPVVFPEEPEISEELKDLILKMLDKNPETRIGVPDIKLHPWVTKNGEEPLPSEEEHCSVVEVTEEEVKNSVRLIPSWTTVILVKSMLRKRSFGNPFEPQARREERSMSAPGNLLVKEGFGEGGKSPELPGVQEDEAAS
Sequence of UniProt P37023 (whole entry, looked up): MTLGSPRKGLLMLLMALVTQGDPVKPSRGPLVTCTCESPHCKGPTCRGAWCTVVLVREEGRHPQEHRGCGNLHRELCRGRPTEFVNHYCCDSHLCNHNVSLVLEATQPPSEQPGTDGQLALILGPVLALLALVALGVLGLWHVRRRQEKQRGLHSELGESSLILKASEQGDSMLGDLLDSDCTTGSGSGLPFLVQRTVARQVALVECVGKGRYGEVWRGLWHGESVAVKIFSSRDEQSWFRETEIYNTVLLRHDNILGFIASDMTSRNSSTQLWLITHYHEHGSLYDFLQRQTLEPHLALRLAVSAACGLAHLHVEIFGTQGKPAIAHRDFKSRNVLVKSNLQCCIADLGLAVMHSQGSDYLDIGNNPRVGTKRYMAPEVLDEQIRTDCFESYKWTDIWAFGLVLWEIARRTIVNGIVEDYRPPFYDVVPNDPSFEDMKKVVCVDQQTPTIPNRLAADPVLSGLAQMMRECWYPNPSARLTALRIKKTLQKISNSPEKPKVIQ
Sequence of UniProt P28482 (whole entry, looked up): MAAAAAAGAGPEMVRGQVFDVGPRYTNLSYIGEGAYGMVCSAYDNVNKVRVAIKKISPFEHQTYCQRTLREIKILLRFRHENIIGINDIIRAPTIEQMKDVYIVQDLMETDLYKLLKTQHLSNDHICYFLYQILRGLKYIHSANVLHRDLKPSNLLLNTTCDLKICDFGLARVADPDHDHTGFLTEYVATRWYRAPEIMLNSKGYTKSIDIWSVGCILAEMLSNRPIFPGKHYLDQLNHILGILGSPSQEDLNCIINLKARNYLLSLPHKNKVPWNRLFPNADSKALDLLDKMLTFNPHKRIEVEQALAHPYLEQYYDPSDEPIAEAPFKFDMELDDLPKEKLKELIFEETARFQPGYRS

Study 1
Target: DNA polymerase theta, ATPase domain (POLQ, Homo sapiens, UniProt O75417)
Sequence of UniProt O75417 (whole entry, unmodified, looked up): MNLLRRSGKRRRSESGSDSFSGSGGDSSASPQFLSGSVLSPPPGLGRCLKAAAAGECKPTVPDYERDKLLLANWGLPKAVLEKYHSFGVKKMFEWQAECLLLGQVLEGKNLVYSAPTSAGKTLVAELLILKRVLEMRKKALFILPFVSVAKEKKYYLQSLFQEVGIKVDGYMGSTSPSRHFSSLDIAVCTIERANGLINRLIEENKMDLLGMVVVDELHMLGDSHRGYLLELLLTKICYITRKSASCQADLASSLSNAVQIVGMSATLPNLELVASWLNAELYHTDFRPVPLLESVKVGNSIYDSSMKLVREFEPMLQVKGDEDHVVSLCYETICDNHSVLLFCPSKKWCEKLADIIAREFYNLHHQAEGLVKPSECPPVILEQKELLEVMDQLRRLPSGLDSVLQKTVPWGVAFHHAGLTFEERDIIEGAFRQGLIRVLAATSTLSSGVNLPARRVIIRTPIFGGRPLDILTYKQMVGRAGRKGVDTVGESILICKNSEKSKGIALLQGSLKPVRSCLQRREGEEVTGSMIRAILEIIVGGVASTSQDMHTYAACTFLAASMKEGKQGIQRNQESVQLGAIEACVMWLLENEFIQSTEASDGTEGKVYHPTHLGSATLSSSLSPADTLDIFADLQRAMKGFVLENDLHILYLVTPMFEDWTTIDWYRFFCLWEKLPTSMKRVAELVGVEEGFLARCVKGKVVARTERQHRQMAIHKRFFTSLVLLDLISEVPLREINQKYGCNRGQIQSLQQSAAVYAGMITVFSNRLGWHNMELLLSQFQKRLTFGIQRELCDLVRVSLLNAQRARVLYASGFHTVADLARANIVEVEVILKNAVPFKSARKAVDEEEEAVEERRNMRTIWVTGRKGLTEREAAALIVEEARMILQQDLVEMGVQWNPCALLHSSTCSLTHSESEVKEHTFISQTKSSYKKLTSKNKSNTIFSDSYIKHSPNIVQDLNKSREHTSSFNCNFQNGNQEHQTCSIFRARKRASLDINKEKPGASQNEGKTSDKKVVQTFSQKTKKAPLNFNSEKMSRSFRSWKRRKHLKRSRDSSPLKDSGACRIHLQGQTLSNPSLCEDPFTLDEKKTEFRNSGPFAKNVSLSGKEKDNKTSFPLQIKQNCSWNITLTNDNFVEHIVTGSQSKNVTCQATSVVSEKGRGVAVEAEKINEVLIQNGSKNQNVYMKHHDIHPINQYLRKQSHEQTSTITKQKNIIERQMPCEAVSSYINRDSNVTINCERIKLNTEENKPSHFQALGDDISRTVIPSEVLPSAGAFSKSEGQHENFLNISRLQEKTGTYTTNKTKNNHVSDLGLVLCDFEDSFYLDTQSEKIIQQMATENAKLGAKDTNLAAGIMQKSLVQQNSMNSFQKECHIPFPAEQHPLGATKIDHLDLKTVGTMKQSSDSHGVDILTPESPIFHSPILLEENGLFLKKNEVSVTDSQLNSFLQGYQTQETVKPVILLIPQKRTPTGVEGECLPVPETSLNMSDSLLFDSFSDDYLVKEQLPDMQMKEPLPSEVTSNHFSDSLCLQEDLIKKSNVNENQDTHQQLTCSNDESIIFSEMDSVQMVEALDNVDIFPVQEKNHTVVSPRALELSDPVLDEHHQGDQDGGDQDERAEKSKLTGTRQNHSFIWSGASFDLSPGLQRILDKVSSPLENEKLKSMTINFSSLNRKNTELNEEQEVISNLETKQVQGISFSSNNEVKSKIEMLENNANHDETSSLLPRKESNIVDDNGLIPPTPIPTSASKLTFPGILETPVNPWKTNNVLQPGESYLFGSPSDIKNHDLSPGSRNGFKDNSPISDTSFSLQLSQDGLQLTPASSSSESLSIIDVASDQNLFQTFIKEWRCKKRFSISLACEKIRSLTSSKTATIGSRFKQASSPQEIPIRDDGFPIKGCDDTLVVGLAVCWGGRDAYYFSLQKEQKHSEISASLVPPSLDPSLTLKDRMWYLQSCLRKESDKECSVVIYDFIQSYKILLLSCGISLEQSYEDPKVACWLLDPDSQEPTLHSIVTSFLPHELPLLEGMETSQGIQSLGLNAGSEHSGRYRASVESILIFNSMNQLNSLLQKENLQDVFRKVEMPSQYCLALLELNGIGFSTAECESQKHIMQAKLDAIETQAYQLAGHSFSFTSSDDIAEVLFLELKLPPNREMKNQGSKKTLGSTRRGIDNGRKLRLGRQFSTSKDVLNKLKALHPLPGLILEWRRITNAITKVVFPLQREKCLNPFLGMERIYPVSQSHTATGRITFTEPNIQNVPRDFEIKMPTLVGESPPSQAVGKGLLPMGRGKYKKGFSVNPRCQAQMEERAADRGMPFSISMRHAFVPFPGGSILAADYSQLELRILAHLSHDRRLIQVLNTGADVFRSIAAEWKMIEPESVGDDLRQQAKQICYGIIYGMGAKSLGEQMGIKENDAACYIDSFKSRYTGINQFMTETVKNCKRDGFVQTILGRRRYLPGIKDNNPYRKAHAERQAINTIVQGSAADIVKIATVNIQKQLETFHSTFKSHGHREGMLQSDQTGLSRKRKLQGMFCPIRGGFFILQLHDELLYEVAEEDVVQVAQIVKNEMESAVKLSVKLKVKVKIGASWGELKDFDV
Read-out: enzyme activity
Action: inhibitor
Tested at: 77 µM
Relative to: untreated
Endpoint: remaining activity
Compound = CC(N)CCCC(C)(C)O (centres unmarked); value = 105%
Compound = O=C1NC(=O)c2c1c1c3ccccc3[nH]c1n1cncc21; value = 110%
Compound = O=C(c1cc2cc(O)ccc2[nH]1)c1cc2cc(O)ccc2[nH]1; value = 113%
Compound = CCn1cc(C(=O)O)c(=O)c2cnc(N3CCCC3)nc21; value = 101%
Compound = N=C(N)Nc1ccc(C(=O)Oc2ccc3cc(C(=N)N)ccc3c2)cc1; value = 105%
Compound = O=C(/C=C/c1ccc(O)c(O)c1)O[C@@H]1C[C@](O)(C(=O)O)C[C@@H](O)[C@H]1O; value = 103% and 95.1%
Compound = CC[C@H](CO)Nc1nc(NCc2ccccc2O)c2ncn(C(C)C)c2n1; value = 108%
Compound = O=C1C(=O)N(Cc2ccc(Cl)c(Cl)c2)c2ccccc21; value = 100%
Compound = NC(=S)N/N=C/c1ncccc1N; value = 99.1%
Compound = COc1cc2ncnc(Nc3ccc(OCc4ccccc4)cc3)c2cc1OC; value = 104%
Compound = COc1ccc(C[C@H](NC(=O)[C@H](C)NC(=O)CN2CCOCC2)C(=O)N[C@@H](Cc2ccccc2)C(=O)[C@@]2(C)CO2)cc1; value = 102%
Compound = OC[C@@H](O)CN1CCN(c2ccccc2)CC1; value = 92%

Study 2
Target: Beta-1 adrenergic receptor (ADRB1, Homo sapiens, UniProt P08588)
Sequence of UniProt P08588 (whole entry, looked up): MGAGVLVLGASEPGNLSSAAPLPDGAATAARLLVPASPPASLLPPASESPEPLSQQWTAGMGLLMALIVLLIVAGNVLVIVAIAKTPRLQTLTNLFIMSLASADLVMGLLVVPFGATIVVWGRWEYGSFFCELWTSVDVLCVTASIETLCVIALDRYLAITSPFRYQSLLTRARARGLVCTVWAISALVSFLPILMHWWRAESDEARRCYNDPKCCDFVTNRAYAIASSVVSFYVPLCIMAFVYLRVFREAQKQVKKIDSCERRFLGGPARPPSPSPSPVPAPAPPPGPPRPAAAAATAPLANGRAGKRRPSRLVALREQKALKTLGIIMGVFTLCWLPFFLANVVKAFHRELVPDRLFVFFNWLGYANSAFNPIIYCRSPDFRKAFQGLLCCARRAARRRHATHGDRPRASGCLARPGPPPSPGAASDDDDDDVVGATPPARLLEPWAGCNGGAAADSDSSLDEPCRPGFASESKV
Action: agonist
Endpoint: EC50
Structure (SMILES) = Cc1ccc(F)c(Cn2cnc3c(cnn3C(C)(C)C)c2=O)c1Cl; value = ≥ 100 µM
Structure (SMILES) = COc1ccc(CN[C@H]2[C@H](O)[C@@H](N3CCN(c4ccccc4OC)CC3)[C@@H]3OC[C@H]2O3)cc1; value = 25.1 µM
Structure (SMILES) = CNc1nc(-c2ccccc2)c(-c2ccccc2)s1; value = ≥ 100 µM
Structure (SMILES) = O=C(c1cc(-c2ccc(F)cc2)nc2ccccc12)N1CCCC1c1nc(C2CCOCC2)no1 (centres unmarked); value = ≥ 100 µM
Structure (SMILES) = CC(=O)Nc1ccc([C@@H](O)[C@H]2COCC(=O)N2CCCc2ccccc2)cc1; value = ≥ 100 µM
Structure (SMILES) = c1cc(N[C@@H]2CCNC2)nc(-c2cnc3ccc(-c4cn[nH]c4)cn23)c1; value = ≥ 100 µM
Structure (SMILES) = COc1ccccc1-c1nc(N2CCOCC2)cc2c1CN(Cc1cnn(C)c1)C2=O; value = ≥ 100 µM
Structure (SMILES) = COc1ccccc1N1CCN(CC[C@H]2CN(C(=O)N3CCOCC3)CC[C@H]2CC(=O)O)CC1; value = ≥ 100 µM
Structure (SMILES) = COc1ccccc1N1CCN([C@@H]2[C@H](O)[C@H](CO)O[C@@H]2CN(Cc2ccc(F)cc2)Cc2ccc(F)cc2)CC1; value = 1.58 µM
Structure (SMILES) = CCCC(NCC(O)COc1ccc(-c2ccccc2)cc1)c1ccccc1 (centres unmarked); value = ≥ 100 µM
Structure (SMILES) = Cc1ccc(/C=C(/C#N)c2nc(-c3cc4c(ccc5ccccc54)oc3=O)cs2)s1; value = ≥ 100 µM
Structure (SMILES) = O=C(c1cc2ccccc2o1)N1CCN(c2cccc(Cl)c2)CC1; value = ≥ 100 µM
Structure (SMILES) = COc1ccc(CC(=O)Nc2ccc([C@@H](O)[C@H]3COCC(=O)N3Cc3ccccc3OC)cc2)cc1; value = ≥ 100 µM
Structure (SMILES) = CC[C@H](NC(C)C)[C@H](O)c1ccc(O)c2[nH]c(=O)ccc12 (racemic); value = 0.0235 µM
Structure (SMILES) = COc1ccccc1-c1n[nH]c2ncc(-c3cccc(F)c3)nc12; value = ≥ 100 µM
Structure (SMILES) = O=c1cc(N2CCNCC2)oc2c(-c3ccccc3)cccc12; value = ≥ 100 µM
Structure (SMILES) = COc1ccccc1N1CCN(c2ncncc2-c2nc(-c3ccccc3)no2)CC1; value = ≥ 100 µM
Structure (SMILES) = COc1ccccc1N1CCN(C(=O)[C@@H]2Cc3c[nH]c4cccc(c34)[C@H](CC(C)C)N2)CC1; value = ≥ 100 µM
Structure (SMILES) = Cc1oc(C(O)c2cccc(O)c2)nc1C(=O)N1CCOCC1 (centres unmarked); value = 1.12 µM
Structure (SMILES) = C[C@H](NCCc1ccc(O)cc1)[C@H](O)c1ccc(O)cc1; value = 0.105 µM
Structure (SMILES) = O=C(CCc1ccccc1)Nc1ccc([C@@H](O)[C@H]2COCC(=O)N2Cc2ccccc2F)cc1; value = ≥ 100 µM

Study 3
SMILES: CN1CCN(c2cnc3c(C4CCN(C(=O)c5ccc(OC(F)(F)F)cc5N)CC4)ncnc3c2)CC1
Method: competition with immobilised ligand
Tested at: 1 µM
Endpoint: remaining binding
target = CDKL5 (Homo sapiens, UniProt O76039); read-out = binding; value = 93%
target = HIPK4 (Homo sapiens, UniProt Q8NE63); read-out = cell-free assay; value = 100%
target = ACVRL1 (Homo sapiens, UniProt P37023); read-out = binding; value = 94%
target = ALK (Homo sapiens, UniProt Q9UM73, L1196M); read-out = cell-free assay; value = 100%
target = PIP5K1C (Homo sapiens, UniProt O60331); read-out = cell-free assay; value = 100%
target = MARK1 (Homo sapiens, UniProt Q9P0L2); read-out = cell-free assay; value = 100%
target = CDK18 (Homo sapiens, UniProt Q07002); read-out = cell-free assay; value = 100%
target = MAPK1 (Homo sapiens, UniProt P28482); read-out = cell-free assay; value = 94%
target = MAPK8 (Homo sapiens, UniProt P45983); read-out = cell-free assay; value = 97%
target = FLT3 (Homo sapiens, UniProt P36888, F691L/ITD); read-out = cell-free assay; value = 100%
target = TESK1 (Homo sapiens, UniProt Q15569); read-out = cell-free assay; value = 96%
target = STK17A (Homo sapiens, UniProt Q9UEE5); read-out = cell-free assay; value = 92%
target = FGFR3 (Homo sapiens, UniProt P22607); read-out = cell-free assay; value = 100%
target = MAP3K20 (Homo sapiens, UniProt Q9NYL2); read-out = cell-free assay; value = 98%
target = TRPM6 (Homo sapiens, UniProt Q9BX84); read-out = cell-free assay; value = 100%
target = CSNK1G3 (Homo sapiens, UniProt Q9Y6M4); read-out = cell-free assay; value = 100%
target = CAMK1D (Homo sapiens, UniProt Q8IU85); read-out = cell-free assay; value = 100%
target = PIK3C2G (Homo sapiens, UniProt O75747); read-out = cell-free assay; value = 100%
target = PRKAA1 (Homo sapiens, UniProt Q13131); read-out = cell-free assay; value = 87%
target = NEK2 (Homo sapiens, UniProt P51955); read-out = cell-free assay; value = 100%
target = STK32A (Homo sapiens, UniProt Q8WU08); read-out = binding; value = 94%
target = GRK1 (Homo sapiens, UniProt Q15835); read-out = cell-free assay; value = 96%
target = WNK1 (Homo sapiens, UniProt Q9H4A3); read-out = cell-free assay; value = 100%
target = eIF-2-alpha kinase GCN2, C-terminal kinase domain (EIF2AK4, Homo sapiens, UniProt Q9P2K8, S808G); read-out = cell-free assay; value = 99%
target = Tyrosine-protein kinase ABL1, phosphorylated (ABL1, Homo sapiens, UniProt P00519, H396P); read-out = cell-free assay; value = 100%

Study 4
SMILES: Cc1ccc(NC(=O)c2ccnc(C(F)(F)F)c2)cc1-c1cc(OCCO)nc(N2CCOCC2)c1
Tested at: 1 µM
Endpoint: remaining binding
target = CAMKK1 (Homo sapiens, UniProt Q8N5S9); method = competitive binding panel; relative to = vehicle; value = 97%
target = PKN1 (Homo sapiens, UniProt Q16512); method = competitive binding panel; relative to = vehicle; value = 100%
target = PLK3 (Homo sapiens, UniProt Q9H4B4); method = competitive binding panel; relative to = vehicle; value = 94%
target = TNK2 (Homo sapiens, UniProt Q07912); method = competitive binding panel; relative to = vehicle; value = 86%
target = SYK (Homo sapiens, UniProt P43405); method = competitive binding panel; relative to = vehicle; value = 100%
target = NTRK1 (Homo sapiens, UniProt P04629); method = competitive binding; setting = TRKA; value = 94%
target = ABL1 (Homo sapiens, UniProt P00519); method = competitive binding, scanMAX; setting = phosphorylated, 1000 nM; value = 74%
target = PRKD3 (Homo sapiens, UniProt O94806); method = competitive binding panel; relative to = vehicle; value = 100%
target = TESK1 (Homo sapiens, UniProt Q15569); method = competitive binding panel; relative to = vehicle; value = 100%
target = NEK7 (Homo sapiens, UniProt Q8TDX7); method = competitive binding panel; relative to = vehicle; value = 100%
target = JAK1 (Homo sapiens, UniProt P23458); method = competitive binding panel; relative to = vehicle; value = 82%
target = SIK3 (Homo sapiens, UniProt Q9Y2K2); read-out = competitive binding; method = DiscoverX scanMAX binding; value = 86%
target = MST1R (Homo sapiens, UniProt Q04912); method = competitive binding panel; relative to = vehicle; value = 87%

Some of these lines once more (study 4):
target = SYK (Homo sapiens, UniProt P43405); method = competitive binding panel; relative to = vehicle; value = 100%
target = NTRK1 (Homo sapiens, UniProt P04629); method = competitive binding; setting = TRKA; value = 94%
target = ABL1 (Homo sapiens, UniProt P00519); method = competitive binding, scanMAX; setting = phosphorylated, 1000 nM; value = 74%
target = PRKD3 (Homo sapiens, UniProt O94806); method = competitive binding panel; relative to = vehicle; value = 100%
